Measurements pooled from the literature.
± marks the error that the study gave.

COc1cc2c(=O)c(-c3ccc(O)cc3)coc2cc1O[C@@H]1O[C@H](CO)[C@@H](O)[C@H](O)[C@H]1O
terminal half-life (UHPLC; healthy volunteers, urine; oral): 199 ± 4.8 min

CS(=O)(=O)n1cc2c(n1)CN([C@H]1CO[C@H](c3cc(F)ccc3F)[C@@H](N)C1)C2
terminal half-life (healthy Japanese men, plasma; oral, dose not given, single dose): > 6000 min

CCCOc1ccc([C@H]2CNC(=O)N2c2ccc3[nH]cnc3c2)cc1
terminal half-life (non-elderly adults, fasted, plasma; oral, 200 mg twice daily, day 11, oral solution, geometric mean): 382 min

N[C@@H](CC(=O)N1CCc2c(nc(C(F)(F)F)nc2C(F)(F)F)C1)CN1CC(F)(F)CCC1=O
terminal half-life (healthy Korean male volunteers; oral, 50 mg, day 7, mean, together with: glimepiride): 627 min

O=C(Nc1ccc(OC(F)(F)F)cc1)N[C@H]1CC[C@H](Oc2ccc(C(=O)O)cc2)CC1
terminal half-life (horses, plasma; intravenous, 0.1 mg/kg): 780 ± 180 min

COc1cccc(N2CCN(C3=Nc4c(F)cccc4[C@H](CC(=O)O)N3c3cc(C(F)(F)F)ccc3OC)CC2)c1
terminal half-life (UHPLC-MS/MS; healthy women, plasma; intravenous infusion, 240 mg single dose, 30 min infusion, HPβCD formulation): 646 ± 114 min

N#Cc1ccc2c(c1)[C@H]1CCCN(C(=O)c3ccc4[nH]cnc4c3)[C@H]1C2
terminal half-life (type 2 diabetes patients, plasma; oral, 10 and 360 mg, steady state, multiple doses, range): 6360 to 7440 min

NCCCC[C@@H]1NC(=O)[C@@H](Cc2c[nH]c3ccccc23)NC(=O)[C@H](c2ccccc2)NC(=O)[C@@H]2C[C@@H](OC(=O)NCCN)CN2C(=O)[C@H](Cc2ccccc2)NC(=O)[C@H](Cc2ccc(OCc3ccccc3)cc2)NC1=O
terminal half-life (healthy male volunteers, plasma; subcutaneous, 1200 µg): 3950 ± 4170 min

NS(=O)(=O)OC[C@@H]1C[C@@H](n2ccc3c(N[C@H]4CCc5ccccc54)ncnc32)C[C@@H]1O
terminal half-life (population PK model; adult cancer patients, plasma; intravenous, typical patient): ~480 min

O=C1CCc2ccc(OCCCCN3CCN(c4cccc(Cl)c4Cl)CC3)cc2N1
terminal half-life (healthy Japanese men, CYP2D6 EM, plasma; oral, 3 mg aripiprazole single, together with: paroxetine 20 mg/day): 6660 ± 942 min

CC(C)(Sc1ccncc1-c1ccc(C#N)c2ccccc12)C(=O)O
terminal half-life (male, plasma; oral, 15 mg, moderate renal impairment, fasted): 1240 min

Excerpt of the above:
NS(=O)(=O)OC[C@@H]1C[C@@H](n2ccc3c(N[C@H]4CCc5ccccc54)ncnc32)C[C@@H]1O
terminal half-life (population PK model; adult cancer patients, plasma; intravenous, typical patient): ~480 min
